Results pooled from the literature.
A part holds a random share of what one study measured.

Block 1 — method: RNA Bind-n-Seq; form: RNA; matrix: in vitro; concentration: 365 nM; reference: no-protein control; direction: higher = stronger binding
Target: RNA binding protein fox-1 homolog 2, RRM domain, GST-SBP tag (RBFOX2, Homo sapiens, UniProt O43251-10, residues 100-194)
Notes: natural RNA segment, single round, ends assumed
Constant ends, left off below: GGGAGUUCUACAGUCCGACGAUC … UGGAAUUCUCGGGUGCCAA
Construct (chain): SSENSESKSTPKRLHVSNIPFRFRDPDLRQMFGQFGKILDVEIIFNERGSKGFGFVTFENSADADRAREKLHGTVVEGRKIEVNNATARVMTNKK
Strand	RBNS enrichment (R)
CUAGCACUGUCUUCCUUUGUAUUUGUCAGAUUUAUGAUGCAUUGUUUCAGUCUACCCUUAAAGAAGUCAAGCCAAAAAUAGAGGUGAGGGCUACUUUGCUUCUUAAUGUA	0.629
CCCCAACUAAGGUCUGUGUCGCCUUCUUGUAAAUGUUGUAUAUGUUGUAUUUUGUUGGUAAUUAUUUUGGUACUUCUAAGAUGUAUAUUUAUUAAACAGAUUUUUACAGA	0.948
AGCUGACAUAGUGUUCUGCCAUGUAAUGUUUAUAGCUGCUGAUGUAUGCACAUUUGGGGGUAUAUCUAUUUCUGAAGAGGUAAGCUGAUCAAAAUAAAUAGAGUGUAAAU	0.447
GAGAAAGAGGCAGUCUGUUGGAGAGGCAUACUUGAGCAGGAUAAAGAUCCUAAAUGGCAGCCUUUCAGAUAGGCAUGUCUGACACCUGCUGAGGCCUCUACCAGUUCACU	0.463
UGCUUUUGAUGUUGUGUUACUGUACACAGAAGUGUGUGCACUGAGGCUCUGCGUGUGGUCCGUAUGGAAAGCCUGGUAGCCCUGCGAGUUAAGUACUGCUUCCAUUCAUU	1.49
CCAGUGUUCUCCUGUAAAUCUCACUGUAAAAAUCUCAAUGCAAAAACACUGAGACAGGAGUGAGACCAGCUGCGGGUGGGGAGUUUGUGCUCCGCAGGUUACCUCAUGGC	0.296
CUGCUGUCUGGGCUGUAAAGUCUGGAAGGCAUUGGAACUUCUCUGUGGAGUGUAUUAGCAUUCAUCUCUCAUAGACAUCAUGUCACAAAAGACAAUGUUAGUAAACUACA	0.221
AGGCUCUGAGGAUGAUGAGCAGGAGUUGUUUGAGCCCACAGUGCCUCACUCAGCCUCCUCAGAACACAAGAUGGCCCGCAGAGGACGGCAGUUACCAGCCUCCUUCCUGC	0.354

Block 2 — method: RNA Bind-n-Seq; form: RNA; matrix: in vitro; concentration: 100 nM; reference: input RNA pool; direction: higher = stronger binding
Target: RING finger protein unkempt homolog, zinc fingers 1-6, SBP tag (UNK, Homo sapiens, UniProt Q9C0B0, residues 30-357)
Sequence of UniProt Q9C0B0 (30-357, looked up): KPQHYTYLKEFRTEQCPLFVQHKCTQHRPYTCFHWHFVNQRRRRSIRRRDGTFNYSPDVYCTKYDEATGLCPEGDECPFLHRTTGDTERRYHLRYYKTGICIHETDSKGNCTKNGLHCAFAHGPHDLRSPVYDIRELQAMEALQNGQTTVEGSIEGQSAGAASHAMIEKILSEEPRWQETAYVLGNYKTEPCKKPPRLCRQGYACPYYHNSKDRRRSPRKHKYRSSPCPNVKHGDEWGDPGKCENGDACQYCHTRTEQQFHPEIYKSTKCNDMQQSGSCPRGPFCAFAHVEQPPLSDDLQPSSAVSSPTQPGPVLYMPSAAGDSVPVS
Notes: RNA with constant flanks, vertebrate orthologous sites, ends assumed
Constant ends, left off below: GGGAGUUCUACAGUCCGACGAUC … CAACAGAGGAUUGAGCAUCA
Strand	bound/input enrichment [ratio]
GUACUACCUGUGCGAAUUUCACAACACUGAAUGCAAAGUAGCAAUUUUCAUAGUCACAGUUAAAUAGCUUUAGGGCAAUAUUGCCUUGGUUUUACUCAUGUGCAGGUUUUAAAAAUGUAC	1.18
UUAAAUAUGUAUCAGAUGCUGGAUGUAACAUUGAACCAUCAUUUUAUAAUAGAUGUUAAUUUGUUAUAAUUAAGCUACAAAUAGGUUUCUUUAAACCAGAGAUACACUGCCCUUGUCUGA	0.195
GCAAUGAAAAAACAGCCCUUCUCCCAGCCCCCUUUUCACUAGGAGAUACAAAAGUUACCAUAGAAGAGCAAUUAAACUCAAUAAAUUUAUCUUUUCAGGAUGAUCCAGACUCCAGCACCA	1.41
CCUAUCCUUGUUACUGUGAUAUUUAAAAUAUCCACAGUACUCACUUUUCCCAAAUGAUUCUAGUAAUUGCCUAGAAAUAUCUUUCUUUUACAUGUUAUUUAUCAAUUUUACCAGUAUUUU	0.862
AAUAUAAGAACUCUUGCAGCCUUAGAUGUUAUAAAAAUAUAUCUGAAUUGUAAGAGUUGCUUAGCAGUUUUUUUUAAGCACUUGUUUUGGGUACAAGGCAUUUCUGAUAUAGUUUUAUAA	0.346
CAGGGAAAAGAGCUCACAAACUCAAAGGAAACUAUUCAAGAGUUUCUAAUAGUCAAAAGCUAGGAAAGAUUAGGACAAUUGUACAAAUGAGCAAUUAAAAAGAAAACAAAAGAAAAAGGU	0.725
CAGUCAUGGAGAAAAAUAUAUUAAAAUAAUUUCAUGGCACUGAUGUUAAUUCUAGUCUAUUAGUUUUAUAAAAGUUAGGGUUCUUAUUUAGGAACAACAGGAAGUGACUGUUAAGGAGAA	2.71
ACAAGAUUUGGACCUUGGAGCAGAACCAGGAGUUAGAAGUAAAAAAAGCUGGUAAAAUUAUAGCCAUAUGCUGCUGCAUAACAGCAGUACUACCACUAGCAACUGUACCUGAAGUAUAAA	0.423

Block 3 — method: protein binding microarray; form: double-stranded DNA, one strand shown; matrix: in vitro; concentration: not given; reference: not given; direction: higher = stronger binding
Target: Histone acetyltransferase KAT6A, winged helix 1, GST fusion (KAT6A, Homo sapiens, UniProt Q92794, residues 1-85)
Notes: 8-mer, flanks averaged, mean of 2 arrays, mostly near background
Residues (chain): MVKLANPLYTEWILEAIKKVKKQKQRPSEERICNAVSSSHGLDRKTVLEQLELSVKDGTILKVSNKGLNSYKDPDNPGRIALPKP
Strand	E-score
GTTCTGCA	-0.0174
CGCTCCCG	0.346
CAGGATAA	-0.27
GACGGAAA	0.302
GCTCGTGA	-0.147
ATTTGTAG	-0.198
CTTCGAAC	0.00661
ACAGTGAC	-0.00758
TCAGTCAA	-0.21
TGACGGAA	0.223
CCGGACCA	0.092
AACTGTTC	-0.12
ATTAAGGG	-0.106
AATTGTCG	-0.0294
ATTTTGAA	-0.125
CTTGTGAA	-0.256
CTATTCTC	0.0157
ACATAGCG	0.0827
ACTGTCCG	0.194
CGTGCAAG	0.0495
ACTCTGCA	-0.27
TTGGACAA	-0.0909
AACTTCAC	-0.146
CATCATAA	-0.0856
CTCCAGCC	0.0387

Block 4 — method: protein-binding microarray; form: double-stranded DNA, one strand shown; matrix: in vitro; concentration: 250 nM; notes: 60-bp whole probe; added: salmon DNA 0.4 mg/ml; reference: random background probes; direction: higher = stronger binding; constant ends, left off below: GCCTAGCAC … GTCTTGATTCGCTTGACGCTGCTG
Target: Interferon regulatory factor 7, full length, phosphomimetic (IRF7, Homo sapiens, UniProt Q92985, residues 1-503, S101K/S471D/S472D/S475D/S476D/S477D/S483D/S484D/S487D)
Sequence of UniProt Q92985 (whole entry, unmodified, looked up): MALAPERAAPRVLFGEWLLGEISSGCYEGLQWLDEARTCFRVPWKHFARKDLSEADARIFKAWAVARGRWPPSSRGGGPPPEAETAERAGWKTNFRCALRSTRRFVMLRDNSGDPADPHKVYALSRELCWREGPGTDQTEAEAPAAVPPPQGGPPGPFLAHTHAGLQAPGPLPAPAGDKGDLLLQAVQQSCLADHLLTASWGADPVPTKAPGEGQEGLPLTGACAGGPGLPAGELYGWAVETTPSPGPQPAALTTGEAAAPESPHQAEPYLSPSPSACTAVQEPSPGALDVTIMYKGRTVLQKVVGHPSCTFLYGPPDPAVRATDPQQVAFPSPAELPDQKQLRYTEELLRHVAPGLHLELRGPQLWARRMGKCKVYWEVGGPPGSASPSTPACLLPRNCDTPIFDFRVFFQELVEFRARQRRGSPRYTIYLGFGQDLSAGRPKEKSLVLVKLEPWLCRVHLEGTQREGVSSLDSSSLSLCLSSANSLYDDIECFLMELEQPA
Strand	log fluorescence
GACGGACTGCTGTTCCTGACGTGCTAG	-0.245 z-score
TCATATATATAATATATAACTGTGCTA	0.622 z-score
TTAGGTATCGTGTTTCGGTTAGTGCTA	4.53 z-score
TTAGGTCTCGGACTAGGTTAGTGCTAG	0.679 z-score
GACGGACTGGGCTATCGGGACGTGCTA	-0.831 z-score
GACGGTTTCGGGACTGGGGACGTGCTA	4.02 z-score
GACGGACTGGATACTGGGGACGTGCTA	-0.875 z-score
CAGGCAGGAGAAGTGAATGAGTGCTAG	-0.885 z-score
GACGAACTGGGAACTGGAGACGTGCTA	-0.253 z-score
CTCCCTCAGGGTTTCAGATGGTGCTAG	-0.133 z-score
GAGGGTTTCGGACTGGGGACGTGCTAG	1.92 z-score
GACGATTTCGGGTTTCAAGACGTGCTA	1.85 z-score
TCACCTCTGGGCTGTTTGACTGTGCTA	-0.542 z-score
CTATATTTGCTTCAGGTTTAGTGCTAG	1.1 z-score
TCATCTATCTTAAATAGGACTGTGCTA	0.549 z-score
GACGGTCTCCTAATGCTGACGTGCTAG	-0.179 z-score
GACGGTATCGGGTTTAGGGACGTGCTA	1.07 z-score
GACGGACTTGGGACTGGGGACGTGCTA	-0.213 z-score
TATTGTCTCCCCCATCTTGTTGTGCTA	0.182 z-score

Repeated from above (block 4):
Strand	log fluorescence
TCATATATATAATATATAACTGTGCTA	0.622 z-score
TTAGGTATCGTGTTTCGGTTAGTGCTA	4.53 z-score
TTAGGTCTCGGACTAGGTTAGTGCTAG	0.679 z-score
GACGGACTGGGCTATCGGGACGTGCTA	-0.831 z-score
GACGGTTTCGGGACTGGGGACGTGCTA	4.02 z-score
GACGGACTGGATACTGGGGACGTGCTA	-0.875 z-score
CAGGCAGGAGAAGTGAATGAGTGCTAG	-0.885 z-score
GACGAACTGGGAACTGGAGACGTGCTA	-0.253 z-score
CTCCCTCAGGGTTTCAGATGGTGCTAG	-0.133 z-score
